Experimental data from different studies.
Each numbered part is a random draw from the data of one study; scales do not carry over between parts. “And” joins repeats or separate records; there may be more than shown.
UniProt Q96NX5, sequence (whole entry, looked up): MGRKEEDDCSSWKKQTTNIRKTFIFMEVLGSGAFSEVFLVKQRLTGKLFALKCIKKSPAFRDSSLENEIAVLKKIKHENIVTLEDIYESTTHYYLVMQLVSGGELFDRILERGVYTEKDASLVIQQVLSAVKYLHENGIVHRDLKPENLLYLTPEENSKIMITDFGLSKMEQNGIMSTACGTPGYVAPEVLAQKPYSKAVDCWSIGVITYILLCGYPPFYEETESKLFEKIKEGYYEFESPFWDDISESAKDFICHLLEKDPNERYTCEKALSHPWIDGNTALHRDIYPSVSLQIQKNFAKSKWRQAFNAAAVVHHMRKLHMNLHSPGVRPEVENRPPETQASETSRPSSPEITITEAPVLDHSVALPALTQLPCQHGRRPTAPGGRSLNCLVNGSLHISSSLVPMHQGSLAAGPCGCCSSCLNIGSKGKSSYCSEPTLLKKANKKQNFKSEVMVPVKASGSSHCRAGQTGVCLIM
UniProt Q9NR20, sequence (whole entry, looked up): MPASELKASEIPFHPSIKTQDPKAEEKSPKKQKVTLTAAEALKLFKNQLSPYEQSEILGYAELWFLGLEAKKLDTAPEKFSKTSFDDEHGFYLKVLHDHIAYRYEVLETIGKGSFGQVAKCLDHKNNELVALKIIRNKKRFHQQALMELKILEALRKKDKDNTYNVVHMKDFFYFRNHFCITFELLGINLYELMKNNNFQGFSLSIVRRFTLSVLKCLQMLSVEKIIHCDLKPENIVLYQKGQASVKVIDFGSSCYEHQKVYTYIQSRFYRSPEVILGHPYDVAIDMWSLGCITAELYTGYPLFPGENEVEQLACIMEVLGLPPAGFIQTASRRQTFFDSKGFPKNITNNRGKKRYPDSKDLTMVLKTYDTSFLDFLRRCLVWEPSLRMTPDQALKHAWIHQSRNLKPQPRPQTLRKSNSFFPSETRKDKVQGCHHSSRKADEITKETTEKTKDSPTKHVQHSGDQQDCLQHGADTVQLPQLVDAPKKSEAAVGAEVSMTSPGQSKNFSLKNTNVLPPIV
UniProt P19784, sequence (whole entry, looked up): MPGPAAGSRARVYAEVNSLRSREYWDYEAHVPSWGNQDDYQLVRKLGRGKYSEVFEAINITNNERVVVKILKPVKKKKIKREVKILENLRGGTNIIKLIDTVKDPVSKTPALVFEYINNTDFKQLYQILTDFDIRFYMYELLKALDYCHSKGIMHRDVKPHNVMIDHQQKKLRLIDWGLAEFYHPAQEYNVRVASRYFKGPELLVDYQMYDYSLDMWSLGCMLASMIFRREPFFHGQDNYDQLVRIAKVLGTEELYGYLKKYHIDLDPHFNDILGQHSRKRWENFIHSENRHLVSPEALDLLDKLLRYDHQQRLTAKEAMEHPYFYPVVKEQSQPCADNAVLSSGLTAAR
UniProt Q99683, sequence (whole entry, looked up): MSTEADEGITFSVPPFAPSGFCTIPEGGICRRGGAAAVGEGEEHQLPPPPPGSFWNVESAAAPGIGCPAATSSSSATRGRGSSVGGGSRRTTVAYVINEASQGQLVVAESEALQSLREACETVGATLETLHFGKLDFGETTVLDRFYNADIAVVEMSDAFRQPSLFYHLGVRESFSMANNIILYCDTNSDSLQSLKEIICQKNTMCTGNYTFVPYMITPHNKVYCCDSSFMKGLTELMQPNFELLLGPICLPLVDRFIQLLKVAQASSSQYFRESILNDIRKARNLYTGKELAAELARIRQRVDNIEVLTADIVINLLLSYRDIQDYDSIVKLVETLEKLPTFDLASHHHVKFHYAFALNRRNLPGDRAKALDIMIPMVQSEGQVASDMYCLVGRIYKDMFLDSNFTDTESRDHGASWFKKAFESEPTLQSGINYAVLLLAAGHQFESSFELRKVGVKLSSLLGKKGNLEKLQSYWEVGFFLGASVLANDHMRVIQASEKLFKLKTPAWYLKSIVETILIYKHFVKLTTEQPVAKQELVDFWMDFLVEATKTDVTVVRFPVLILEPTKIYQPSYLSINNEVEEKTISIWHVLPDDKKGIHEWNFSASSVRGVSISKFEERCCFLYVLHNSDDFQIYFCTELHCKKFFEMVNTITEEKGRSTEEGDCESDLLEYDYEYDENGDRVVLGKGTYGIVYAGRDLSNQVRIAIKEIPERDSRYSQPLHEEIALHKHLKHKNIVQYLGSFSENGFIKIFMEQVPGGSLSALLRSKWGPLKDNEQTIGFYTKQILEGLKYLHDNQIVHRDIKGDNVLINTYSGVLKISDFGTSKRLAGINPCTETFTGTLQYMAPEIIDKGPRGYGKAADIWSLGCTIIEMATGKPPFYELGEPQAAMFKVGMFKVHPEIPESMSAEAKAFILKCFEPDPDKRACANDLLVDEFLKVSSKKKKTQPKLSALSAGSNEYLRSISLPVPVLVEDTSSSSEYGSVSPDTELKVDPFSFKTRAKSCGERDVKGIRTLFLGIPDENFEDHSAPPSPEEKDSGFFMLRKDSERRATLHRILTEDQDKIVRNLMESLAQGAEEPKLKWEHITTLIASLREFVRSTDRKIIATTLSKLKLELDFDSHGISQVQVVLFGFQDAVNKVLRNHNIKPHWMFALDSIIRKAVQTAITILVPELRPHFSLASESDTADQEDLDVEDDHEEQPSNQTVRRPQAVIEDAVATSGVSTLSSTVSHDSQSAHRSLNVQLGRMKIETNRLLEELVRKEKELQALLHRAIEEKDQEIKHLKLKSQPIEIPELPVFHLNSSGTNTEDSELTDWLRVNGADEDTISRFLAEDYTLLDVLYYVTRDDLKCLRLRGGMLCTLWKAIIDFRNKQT
UniProt Q16288, sequence (whole entry, looked up): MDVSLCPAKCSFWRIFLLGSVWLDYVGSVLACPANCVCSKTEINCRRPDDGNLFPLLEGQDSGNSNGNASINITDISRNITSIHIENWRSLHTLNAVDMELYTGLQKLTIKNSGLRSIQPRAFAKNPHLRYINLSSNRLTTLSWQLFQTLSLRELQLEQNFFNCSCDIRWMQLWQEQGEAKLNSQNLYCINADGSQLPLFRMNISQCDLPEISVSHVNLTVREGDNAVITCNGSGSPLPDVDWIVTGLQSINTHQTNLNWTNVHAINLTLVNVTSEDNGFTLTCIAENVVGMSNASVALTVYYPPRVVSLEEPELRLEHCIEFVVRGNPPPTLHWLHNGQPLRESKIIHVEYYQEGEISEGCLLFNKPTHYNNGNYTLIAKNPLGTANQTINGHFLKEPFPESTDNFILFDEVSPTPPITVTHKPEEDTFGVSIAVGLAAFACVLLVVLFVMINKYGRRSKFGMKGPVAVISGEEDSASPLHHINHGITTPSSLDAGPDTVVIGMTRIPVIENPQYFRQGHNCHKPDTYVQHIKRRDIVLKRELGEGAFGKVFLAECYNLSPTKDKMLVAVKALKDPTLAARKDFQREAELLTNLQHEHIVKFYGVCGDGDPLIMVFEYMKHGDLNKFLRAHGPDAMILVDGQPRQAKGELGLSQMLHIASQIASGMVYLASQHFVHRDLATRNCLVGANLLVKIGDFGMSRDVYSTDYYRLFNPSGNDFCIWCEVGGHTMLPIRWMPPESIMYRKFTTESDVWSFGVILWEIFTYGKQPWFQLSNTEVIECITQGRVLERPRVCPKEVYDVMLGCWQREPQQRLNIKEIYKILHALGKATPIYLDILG
UniProt Q9H2G2, sequence (whole entry, looked up): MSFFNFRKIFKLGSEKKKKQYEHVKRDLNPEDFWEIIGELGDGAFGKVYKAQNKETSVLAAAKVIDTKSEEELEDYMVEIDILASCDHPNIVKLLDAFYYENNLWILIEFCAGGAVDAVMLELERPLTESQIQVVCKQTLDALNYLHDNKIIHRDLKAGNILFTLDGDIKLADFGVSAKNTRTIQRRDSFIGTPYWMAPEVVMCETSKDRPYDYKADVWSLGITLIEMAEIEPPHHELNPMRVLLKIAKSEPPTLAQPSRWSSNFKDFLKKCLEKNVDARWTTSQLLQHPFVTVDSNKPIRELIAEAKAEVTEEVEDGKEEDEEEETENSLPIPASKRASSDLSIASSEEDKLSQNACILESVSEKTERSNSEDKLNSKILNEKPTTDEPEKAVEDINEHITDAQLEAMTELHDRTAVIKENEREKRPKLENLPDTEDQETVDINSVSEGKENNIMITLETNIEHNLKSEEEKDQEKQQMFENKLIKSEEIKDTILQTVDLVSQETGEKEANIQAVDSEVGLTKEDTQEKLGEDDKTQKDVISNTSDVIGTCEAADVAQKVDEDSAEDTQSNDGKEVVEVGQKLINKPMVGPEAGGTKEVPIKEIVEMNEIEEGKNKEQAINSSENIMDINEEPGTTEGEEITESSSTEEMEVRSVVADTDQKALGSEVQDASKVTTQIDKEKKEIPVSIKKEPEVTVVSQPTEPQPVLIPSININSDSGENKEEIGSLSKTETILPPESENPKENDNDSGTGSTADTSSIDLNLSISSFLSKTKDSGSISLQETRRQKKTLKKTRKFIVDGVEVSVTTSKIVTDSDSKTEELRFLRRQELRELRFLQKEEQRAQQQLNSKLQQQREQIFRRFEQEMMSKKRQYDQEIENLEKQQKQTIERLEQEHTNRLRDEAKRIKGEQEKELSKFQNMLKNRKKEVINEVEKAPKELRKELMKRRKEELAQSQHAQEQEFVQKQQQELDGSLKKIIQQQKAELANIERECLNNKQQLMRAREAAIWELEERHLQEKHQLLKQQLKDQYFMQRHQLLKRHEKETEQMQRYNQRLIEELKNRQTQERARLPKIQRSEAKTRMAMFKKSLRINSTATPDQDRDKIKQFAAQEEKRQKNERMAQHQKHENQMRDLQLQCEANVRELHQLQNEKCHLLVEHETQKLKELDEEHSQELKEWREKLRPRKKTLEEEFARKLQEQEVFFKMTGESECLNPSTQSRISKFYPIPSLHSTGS

Series 1
Cell line: A-375
Concentration: 100 µM
Time: 36 h
Compound	viability
CC(=O)OC/C=C(C)/C=C/C=C(C)/C=C/C1=C(C)CCCC1(C)C	16.6%
O=C1CN(/N=C/c2ccc([N+](=O)[O-])o2)C(=O)N1	21.7%
Nc1ccc(O)c(C(=O)O)c1	91.3%
NC[C@H]1O[C@H](O[C@H]2[C@H](O[C@@H]3O[C@H](CO)[C@@H](O)[C@H]3O)[C@@H](O)[C@H](N)C[C@@H]2N)[C@H](N)[C@@H](O)[C@@H]1O	106%
CNCC[C@@H](Oc1ccccc1C)c1ccccc1	16.1%
CNC[C@H](O)c1ccc(O)c(O)c1	114%
CNCCCN1c2ccccc2CCc2ccccc21	-1.34%
Cc1c(O)cccc1C(=O)N[C@@H](CSc1ccccc1)[C@H](O)CN1C[C@H]2CCCC[C@H]2C[C@H]1C(=O)NC(C)(C)C	9.63%
CCNC(=O)CCC/C=C\C[C@@H]1[C@@H](/C=C/[C@@H](O)CCc2ccccc2)[C@H](O)C[C@@H]1O	98.1%

Series 2
SMILES: N#CC(=C(N)Sc1ccc(N)cc1)c1ccccc1C(F)(F)F
Observed: enzyme activity
Mode: inhibitor
Concentration: 0.5 µM
Reference: control
target	remaining activity [%]
SLK (Homo sapiens, UniProt Q9H2G2)	102
CSNK2A2 (Homo sapiens, UniProt P19784)	86
CAMK1G (Homo sapiens, UniProt Q96NX5)	96.6
DMPK (Homo sapiens, UniProt Q09013)	102
NTRK3 (Homo sapiens, UniProt Q16288)	101
DYRK4 (Homo sapiens, UniProt Q9NR20)	92.4
PKN2 (Homo sapiens, UniProt Q16513)	99.9
BRSK1 (Homo sapiens, UniProt Q8TDC3)	91.2

Series 3
Cell line: mouse MPNST tumor cells
Technique: high-content immunofluorescence imaging
Refers to: nuclear SOX9
Concentration: 10 µM
Time: 12 h
Setting: mean of 2 replicates
Reference: DMSO control
Reading: higher = more nuclear SOX9
Compound	nuclear SOX9 intensity
COc1ccccc1C(=O)Nc1cccc(NC(=O)c2cccc(C)c2)c1	100 % of DMSO
Cn1ncnc1COc1nn2c(-c3cc(F)ccc3F)nnc2cc1C(C)(C)C	91.4 % of DMSO
CN(C)c1ccccc1CN1CCCN(Cc2ccccc2N(C)C)C1c1ccncc1	227 % of DMSO
COc1ccc2[nH]cc(CCNC(C)=O)c2c1	98.9 % of DMSO and 100 % of DMSO
CCCOc1ccn2c(C(C)=O)cc(-c3ccccc3S(C)(=O)=O)c2c1	108 % of DMSO
Cn1c(=O)c2c(ncn2CC(=O)O)n(C)c1=O	106 % of DMSO
C=CCc1ccccc1OCC(O)CNC(C)C (stereo not shown)	139 % of DMSO
CN1C(=O)c2sccc2N(C)c2nc(Nc3ccc(S(N)(=O)=O)cc3)ncc21	115 % of DMSO
O=C1NCCN1c1ncc([N+](=O)[O-])s1	95.7 % of DMSO
N=C(N=C(N)N)N1CCOCC1	92.5 % of DMSO
CCCCN(CCCC)CCCOC(=O)c1ccc(N)cc1	100 % of DMSO
C[C@H](NC(=O)c1sccc1OCc1ccc(Cl)cc1)c1ccccc1	113 % of DMSO

Single results of other studies
Structure (SMILES)	tested on	observed	technique	concentration	time	endpoint	result
C[C@@H]1CN(c2cc(-c3nn(C)c4ccc(OC5(C)CC5)cc34)ncn2)C[C@H](C)O1	MAP3K5 (Homo sapiens, UniProt Q99683)	target engagement in cells	BRET	–	–	EC50	4.1 µM
Cn1cncc1[C@@](O)(COc1ccc(C#N)cc1-c1ccc(OC(F)(F)F)cc1)c1ccc(C#N)cc1	HEK293T	–	high-content imaging	10 µM	24 h	pyknotic nuclei	31.1%
